Experimental data of several laboratories.
Every numbered part comes from another study and shows a few of its results, in no order.

Series 1
Target: Interferon regulatory factor 7, full length, phosphomimetic (IRF7, Homo sapiens, UniProt Q92985, residues 1-503, S101K/S471D/S472D/S475D/S476D/S477D/S483D/S484D/S487D)
Technique: protein-binding microarray
Molecule type: double-stranded DNA, one strand shown
Matrix: in vitro
Tested at: 250 nM
Setting: 60-bp whole probe
With: salmon DNA 0.4 mg/ml
Baseline: random background probes
Reading: higher = stronger binding
All sequences stand within: GCCTAGCAC … GTCTTGATTCGCTTGACGCTGCTG
Target sequence (chain): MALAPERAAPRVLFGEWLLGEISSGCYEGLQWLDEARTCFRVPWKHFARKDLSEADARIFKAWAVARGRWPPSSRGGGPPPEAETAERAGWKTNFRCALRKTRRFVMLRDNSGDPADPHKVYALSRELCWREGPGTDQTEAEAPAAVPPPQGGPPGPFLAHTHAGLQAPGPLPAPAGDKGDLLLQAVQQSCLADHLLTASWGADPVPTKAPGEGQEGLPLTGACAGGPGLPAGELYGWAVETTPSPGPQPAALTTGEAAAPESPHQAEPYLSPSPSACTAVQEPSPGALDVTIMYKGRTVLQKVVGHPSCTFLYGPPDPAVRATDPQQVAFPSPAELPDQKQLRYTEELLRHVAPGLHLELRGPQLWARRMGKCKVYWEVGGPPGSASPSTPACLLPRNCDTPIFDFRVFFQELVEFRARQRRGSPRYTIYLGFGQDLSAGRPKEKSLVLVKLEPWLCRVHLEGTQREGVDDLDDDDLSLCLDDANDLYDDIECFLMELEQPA
Oligonucleotide	log fluorescence [z-score]
GACGATTTCCGTCTCGAGACGTGCTAG	0.863
GACGGTTTCGACTATCTGGACGTGCTA	5.52
TCAGCTCTGTGCTTTCCTACTGTGCTA	-0.362
TTAGGACTGCTCATCCTTTAGTGCTAG	-0.208
AAGCCATTGGTCTTCACTTGGTGCTAG	-0.763
GACGGACTGGGTATCGGGATGTGCTAG	-0.286
GACGGTTTCGGACTGGGGAAGTGCTAG	4.64
TTAGGTCTCCTTATCTTTTAGTGCTAG	0.156
GACGGACTGCACTTTCGGGACGTGCTA	-0.138
TTAGGTCTCGGTGTCGGTTAGTGCTAG	0.592
GACGTACTGCTTTTCCTGACGTGCTAG	0.657
TTAGGTATCGGTTTAGGTTAGTGCTAG	6.05
GACGCTTTCCTTTTCCTGACGTGCTAG	2.45
TTAGGACTGGACTCTGGGTTAGTGCTA	-0.522
TTAGGTTTCGGTTTAGGTTAGTGCTAG	14.3
GGCGGTATCGGTCTCGGGACGTGCTAG	0.422
GAGCCTCTGTTTTGAGCACAGTGCTAG	0.489
GTAGGACTGGGACTGGGTTAGTGCTAG	-0.343
TTTTTTTTTTTTTTTTTGGAGTGCTAG	0.674

Series 2
Target: Histone acetyltransferase KAT6A, winged helix 2, GST fusion (KAT6A, Homo sapiens, UniProt Q92794, residues 85-181)
Technique: protein binding microarray
Molecule type: double-stranded DNA, one strand shown
Matrix: in vitro
Tested at: not given
Setting: 8-mer, flanks averaged, mean of 2 arrays, mostly near background
Baseline: not given
Reading: higher = stronger binding
Target sequence (chain): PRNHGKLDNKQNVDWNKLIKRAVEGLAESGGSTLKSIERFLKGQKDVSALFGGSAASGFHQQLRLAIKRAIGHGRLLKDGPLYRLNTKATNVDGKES
Oligonucleotide	E-score
AGAAACTC	0.139
GGTGCGTA	0.0533
CATTGCGA	-0.0333
AGATGCTG	-0.167
AGAGATCT	-0.114
ACCTGGGC	-0.0854
ATCTTCTA	-0.113
CAGCCAAC	-0.0419
CCGTGGCG	0.0757
CTAACATC	-0.0259
TACCCGTA	-0.141
AAGCTTGA	-0.0933
GGACCCGA	0.168
ATACATAG	0.106
TCTCTTCA	-0.00988
AACGGACT	-0.157
CCTTAGTA	-0.153

Series 3
Target: RNA binding protein fox-1 homolog 2, RRM domain, GST-SBP tag (RBFOX2, Homo sapiens, UniProt O43251-10, residues 100-194)
Technique: RNA Bind-n-Seq
Molecule type: RNA
Matrix: in vitro
Tested at: 365 nM
Setting: natural RNA segment, single round, ends assumed
Baseline: no-protein control
Reading: higher = stronger binding
All sequences stand within: GGGAGUUCUACAGUCCGACGAUC … UGGAAUUCUCGGGUGCCAA
Target sequence (chain): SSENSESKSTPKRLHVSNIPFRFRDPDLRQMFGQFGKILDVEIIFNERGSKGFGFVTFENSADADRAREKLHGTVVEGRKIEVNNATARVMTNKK
Oligonucleotide	RBNS enrichment (R)
AGAAAUUGAAAGUGGCUACCUUUCAUGUCAAAAAUGUUGAUCUAUUAUAAAUAAAAUGUUUUUGCAUAUGUUUUUGAUUUGGUUUGGGCUAUGCAUUUUACUUUCGUUUU	1.15
AACGUCCCAGCAGUCUUGGUAAAAGGAGGGAGCCUGCUGAGCCAGGAGGGAGAAAAGAAGAUUGACCAGCUUGCUAGAAAAAUACUUAGCUUUUCUUUUUCUUUUUUUGU	0.868
GACACAAAAAUUCACAUGGAAAUGGGGAAGAUGGUCUGUUUUGACAGAAACUGACAGGAAUCAAUCAAAACAAUCGAAUUUUGAAUUGAGUAAAGUGCAAUUUCAUUGGA	0.342
CCAGGGGAGGUUUAGGGGUCCUAUCUCCUGGGGGAAGGGGAGAUCUAAGAUGUCCCAGGUCCUGGGAAGUUUACUCAAUAAAGCUGGCUUUCCCCUGCCCUCCAUGCUGG	0.501
GUACAGCUCUGUGAAAGUUCUGAUUCUCUUCCUUCCCUGUUUGUCAAUGUUUUAUUCUGAAGUAAACGUUAGCUCUACAUAUAAAUCCUGGAACAGAAAUUGUUUAUAGA	0.506
AUCUGAAGAACACAGUAUCAUGACUCGGGUGGAAAGGGAGGCAGAAGCCAUUUUUCUUUUAGAUGAAAAGCAUUCUGUGUGAUUGUUGUAUAAUAAAUUGAUUUUUACAC	0.733
GUGUUCAGGUGACAGACUUUAUCAAAACUAUUGCUGUUUUGGCAUGAGUUGUGUUUCUGGACUGUUUUGUUUUCCCCUUUAGACAAAGAGCAACUUAGAAGUAUUUGCAA	0.675
AGAGGUUUAUGCUGAGGGGGGGUGACUUUUUAGAAACGUAGCUUCUUGGCGUUUUGCAACCCAUGCUGGCCUCCCUCCUGCAGAUGGCAUAGGAGUCCGUCUGUCUUUGG	0.399

Series 4
Target: Centromere-binding protein 1, full length, N-terminal tag (CBF1, Saccharomyces cerevisiae, UniProt P17106, residues 1-351)
Chain of UniProt P17106 (whole entry, looked up): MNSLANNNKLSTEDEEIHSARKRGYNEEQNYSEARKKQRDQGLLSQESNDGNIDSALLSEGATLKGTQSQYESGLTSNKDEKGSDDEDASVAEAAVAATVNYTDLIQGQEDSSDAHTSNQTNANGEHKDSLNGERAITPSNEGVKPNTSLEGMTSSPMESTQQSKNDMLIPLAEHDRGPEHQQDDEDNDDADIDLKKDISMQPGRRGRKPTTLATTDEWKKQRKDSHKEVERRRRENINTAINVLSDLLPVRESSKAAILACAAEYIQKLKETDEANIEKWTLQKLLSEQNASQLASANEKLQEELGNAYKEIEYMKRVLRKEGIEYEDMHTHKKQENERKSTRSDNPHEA
Technique: protein-binding microarray
Molecule type: double-stranded DNA, one strand shown
Matrix: in vitro
Tested at: 0.8 µM
Setting: whole 60-bp probe, no competitor
Reading: higher = stronger binding
All sequences stand within: … GTCTTGATTCGCTTGACGCTGCTG
Oligonucleotide	fluorescence intensity [a.u.]
CCTAACTACTATAATCAGGAGAAATAGCTTCGTACA	512
CTAATGTCAAAAAATCTCGTGAGACCTCCGGAATTC	621
CTACCGTATAGAAAACGCGTGGCTGGTAGCTTTTTC	550
CTAGCCGATAATTTTCACATGGATGAGTCGCAGTTC	578
CTATAGTATATACGTCACGAATACAGGAACACCTTC	607
CTATTAAAAAAAAAAAAGCACGTGCTCAAAAATTTC	25400
CTATAGTATAAGAATCACATGTTTTCCATTCTTTTC	2060
CTATTTTGCGTCGCGCACGTTTCTCACGTACATTTC	652
CTAATTTGAGTAGATCTGATGCGCAATGTCTATTTC	485
GAATAAGTAATTTCTAACGTGATAAAGTAGTTATAG	688
GAATCGTTCAAAGAAAACATCAGAAGTGGTTGATAG	549
CTAGCCACAAGTACTCAGGTGTCCTATGAAGCATTC	539
GAAACGCTATACATTTACGTGCTGAGCTCCTAGTAG	523
GAAAAATAGTTGAAAGGTGTGACATAAGAAGGTTAG	568
CCTAACTACTATAGGCACGTGGCATAGCTTCGTACA	9190
GAACCTACATTTCCTCTGATGACTGTGATCCTTTAG	555
CTAAAAGAGCACCCTCATGATTTCTTGCTCTGCTTC	509
CTACTGGAAGAAAAACACATGACCAGAATGATATTC	2720
GAATTCTCTCCGAGACACGTGCTAATATCTATTTAG	11100
